Measurements of several laboratories.
Parts stem from different laboratories: compare values within a part only.

Study 1
Target: Sal-like protein 4, full length isoform B (SALL4, Homo sapiens, UniProt Q9UJQ4-2, residues 1-616)
Method: universal PBM
Form: double-stranded DNA, one strand shown
Sample: in vitro
Tested at: not given
Notes: 8-mer, flanks averaged, mean of replicates
Direction: higher = stronger binding
Residues (chain): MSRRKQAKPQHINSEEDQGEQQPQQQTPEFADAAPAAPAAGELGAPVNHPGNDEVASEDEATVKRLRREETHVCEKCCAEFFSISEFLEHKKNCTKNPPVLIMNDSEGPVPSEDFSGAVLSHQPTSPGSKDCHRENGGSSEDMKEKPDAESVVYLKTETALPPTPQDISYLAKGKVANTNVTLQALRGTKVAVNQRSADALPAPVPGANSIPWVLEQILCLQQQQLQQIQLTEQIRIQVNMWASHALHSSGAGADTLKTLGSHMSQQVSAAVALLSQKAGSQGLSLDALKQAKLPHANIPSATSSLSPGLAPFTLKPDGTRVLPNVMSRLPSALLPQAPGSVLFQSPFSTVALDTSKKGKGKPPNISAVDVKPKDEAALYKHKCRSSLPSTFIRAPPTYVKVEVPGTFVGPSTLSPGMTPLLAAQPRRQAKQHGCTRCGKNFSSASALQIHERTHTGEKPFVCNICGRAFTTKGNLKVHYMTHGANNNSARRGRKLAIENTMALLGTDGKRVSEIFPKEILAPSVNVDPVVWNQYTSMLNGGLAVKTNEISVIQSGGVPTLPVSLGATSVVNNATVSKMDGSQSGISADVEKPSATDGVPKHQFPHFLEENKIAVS
| Strand | E-score |
| --- | --- |
| CAGTTTAG | 0.00883 |
| GAAAAATC | 0.141 |
| CCTGTCAA | -0.0243 |
| CCCGATGC | -0.355 |
| ACGAATCA | 0.0237 |
| TATGACGA | 0.256 |
| GCCACTAC | -0.19 |
| TCGGGACA | -0.148 |
| CCCAGTGA | -0.177 |
| ACGTGTGA | 0.012 |
| GAATTAGA | 0.191 |
| ATGATGGG | 0.0189 |
| CCCACAGA | -0.116 |
| CACACGTA | -0.0868 |
| GACTGCGA | -0.139 |
| TAACGCGA | 0.0102 |
| GGGACCGA | -0.309 |
| AGCCCCGA | -0.23 |
| GCGTAGAC | -0.177 |
| GGAGACAA | -0.0347 |
| GAATGATC | 0.139 |
| CCATTGCC | -0.121 |

Study 2
Target: RING finger protein unkempt homolog, zinc fingers 1-6, GST-SBP tag (UNK, Homo sapiens, UniProt Q9C0B0, residues 30-357)
Method: RNA Bind-n-Seq
Form: RNA
Sample: in vitro
Tested at: not given
Notes: RNA with constant flanks, human and mouse sites, ends assumed
Reference: input RNA pool
Direction: higher = stronger binding
Shared flanks, not repeated: GGGAGUUCUACAGUCCGACGAUC … CAACAGAGGAUUGAGCAUCA
Target sequence (chain): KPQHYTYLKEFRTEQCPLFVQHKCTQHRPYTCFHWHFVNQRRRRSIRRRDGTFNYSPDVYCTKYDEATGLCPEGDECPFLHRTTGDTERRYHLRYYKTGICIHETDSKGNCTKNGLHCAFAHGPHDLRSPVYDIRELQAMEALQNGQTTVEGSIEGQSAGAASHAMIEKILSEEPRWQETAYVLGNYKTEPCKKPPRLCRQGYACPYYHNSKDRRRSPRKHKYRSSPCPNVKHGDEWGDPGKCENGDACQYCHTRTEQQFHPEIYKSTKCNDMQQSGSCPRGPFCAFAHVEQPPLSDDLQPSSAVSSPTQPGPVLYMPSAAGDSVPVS
| Strand | bound/input enrichment |
| --- | --- |
| UGUCAGCUGAGAGGCUUAUACUAAAGUUAUUAUUGUUUUUCCCAAGUUCUCUGUUCUGGAUUUUCAGUUGCAUAUUAAUGUAACGGGCCAUGGGGUAUGUACAUGUAGGGGCUGAGGUUG | 0.313 ratio |
| AAAUGUUGUUUACCUUCUCAGAGUAGUGCUUUGGGGGUUCCUGGCGGCGUGUUGGAGGUCUAGCACAUACAGCUUCCCUUAACAGAAUAUUUUACGACAGUUUCAUACAGGGUUGCCUUA | 0.294 ratio |
| AGUAGGAAAAUUACUGUUUUGCAAGUGAAUGAAAAAUCACUUAUAAGGCAAUAUACAACCUUAGUAGAAUUGGAGCGACAACUUAGAAAAGAAAAUGAGAAGCAAAAGAAUGAAUUGUUG | 2.73 ratio |
| UGACUCUGCUCUGACCCCCACCAGUGCCGCACAGUCUGGAAUAAAAGCAGAAGCAUGGUGAAGCUGAACAGCAACCCUGGAGAGAAGGGGGCCAAGCCGCCUUCCGUGGAGGAUGGUUUC | 0.117 ratio |
| GGCUAUUUAUUGCAUUCUCCUUUGUAAACCCAGUCUAGGGUAAGCUUAAUACUUUACCCACAGGGUAGCUCUUCAGAAAACCUAAUCAGUCUAUUUUGUGCCCAGGUUUGUGUGUGUGUG | 0.33 ratio |
| CCGUAUGAAAUGUGUAGUAGUGGUUUAGUCCAGGCACUUCUUACUGUUCUAAACAAUAGUAUAGAUUUGGAUAUGAAGCAAGAUUGUAGUCAACUGGUAGAAAGAAUAAAUGUCUUCAAA | 4.27 ratio |
| GCCUUGGAGUAGGUGGCAUAACCUUGUGCACAGAGAACUAGAAAAGGGGCAGAACCCCGGCCUUGCAGUUGUGGCAGGUUUCCACUGUGGUAAGCUAGGUUCAUUCCUCAUCAAGGAAUG | 0.197 ratio |
| GAUGCUGCUUUGGAGGCCACAGAGAAUGAACCACUUAACAAGGAAACAGAAGAAAUGUGUGUGAUGCUUGUCUCUAAUUUGCCUAAUAAAGGAUAUUCUGUAGAAGAAGUUUAUGACUUA | 0.512 ratio |
| GAGAGAGAUGGUGCUGUCAAGGCUAUGGAAGAAAUGAAUGGUAAAGACUUGGAGGGAGAAAAUAUUGAAAUUGUUUUUGCUAAGCCACCAGAUCAGAAGAGGAAAGAAAGAAAAGCUCAG | 0.266 ratio |
| UUUCUCUAUGGAUAUCUUAAUCAAGAUAACUGUACAUGGAGCAAAGAAGUUUGUCAUCCUGAUAUUGGUGGCAAGAUCAUAAUGUGUCCUCAGUGUGAUAGGCUUUGUCCAUUCUGGAAA | 0.0852 ratio |
| CCUUCAGUGGUGUAUAGGCUGGAUUCUCUCACCACUCUUUACCUUCGCUUUAAUCGUAUAACUACUGUGGAAAAGGACAUCAAAAACUUGUCAAAACUCAGCAUGCUUAGCAUUCGAGAG | 0.106 ratio |

Study 3
Target: RNA binding protein fox-1 homolog 2, RRM domain, GST-SBP tag (RBFOX2, Homo sapiens, UniProt O43251-10, residues 100-194)
Method: RNA Bind-n-Seq
Form: RNA
Sample: in vitro
Tested at: 365 nM
Notes: natural RNA segment, single round, ends assumed
Reference: no-protein control
Direction: higher = stronger binding
Shared flanks, not repeated: GGGAGUUCUACAGUCCGACGAUC … UGGAAUUCUCGGGUGCCAA
Construct (chain): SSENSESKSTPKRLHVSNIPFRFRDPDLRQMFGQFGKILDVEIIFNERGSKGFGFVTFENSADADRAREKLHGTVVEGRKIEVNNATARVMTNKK
| Strand | RBNS enrichment (R) |
| --- | --- |
| AAUGAUCCCCUUGACUGCAUCAUGCAUGUGCGGAAAAAAUAAAUCCAGAAGUAGCAGAACCCUAGCUCUGUUUGUGUGACAUAGUAGGGUAUUAGACUAUGAGGUUGUGG | 5.98 |
| UUGCAUGCUUUAUUCUACCUCUAAGCCAUCGUGUUGACGUGGGUAUGGACGCCUGGGUCUGACCUGACACUGUGCUGGGAGAAUCAGGAUGUGUGUCUAAUGGCGAGCUG | 0.704 |
| GCCUGUUCACUGUUUCAGGCUGCUCAGCACACAUUGGGAGAGGUGGCCAUAUCCCAGAACACUACCUCAUCCACCUGGCAGAGGGAAUUUCUGCUUCAGCCACCAAGCAG | 0.625 |
| GCUUAGAAAAGGCGUAAGGGAACUCAUAAAGGCUAGCAGCAUGCGGUAUUUUAACUUUCUGCCUCGGCCUCUGUGGAUGCAGAAAUCUGCCCUACAAAAUGCUCUUCAUU | 1.04 |
| CGACAAGGAAAGUGAUGUGGAGAUUUAGAGCAGCAUGGAUGCUGUGUCCCCAAGAGUUCCUUGUCACCUCUGUGGUGGGAAGGAAAGUAUGGUUUCCCCAGGUCUGAACU | 1.74 |
| CGCCAGCAGAACUCAAUAGCCCAGGAUGUGCUAUCGAAGACAAUGUUUUUAGUUGCUAUCUGUAGCGUGACAACGGGCAGCUAUAUUUACAGGCUUUCAUUCUAUCUUAU | 0.387 |
| ACACAAGCCAGUAUUCUGUGAACAAGUUCCAGAUGAAAAACACAGAAGUUGUGAAUGAAGUUGUAGCCAUUCCCUGCCCUGCACUAUAUUUUUCAGGGUGCAUUUUAAAU | 0.379 |
| GGGAGACUGGAUAUAGUAGUGCAUACCUAUAACUCCAGCACUUGGGACGUGGAGGUAGGUGGAUCACUGCAAGUUUGAGGCUAGCAUGGUCAAUAAAGAUAGUUCAAGGC | 10.3 |
| CAUCAUCUCCAGAACUCCCAGCGGGGCUCCCUGAGCUCUCAAGGAGAUGCUGCCAUCACUGGGAGGCUCAGAGGACCCUUCCUGCCCACCUUCGGAGACGGCUUCUGGAG | 0.238 |
| AUAAGAAGAACGUUACACGGAAAUCACCAAAUAUUUUGCAACUUUAUUUCUUCUGACAUGGAGUGAACAUCAAUAGGAAUACUUUCAAAGAAAAUGAAAACACAGAAGCA | 1.29 |
| GGGCCCAUGCCGAGUGGAUGCCCCCCACCCUCUCUCCUGGGCCACUGAGGAGAGGGGAGAGAGCUGGUGAUUCCAGAAGGGUGACCCGGACAGCCUAGCUGGGGGCUCCC | 0.284 |
| GUUCUGAGAGUGCCCGCAGGCUGCUGCGUCCUGGCCCCUCUGUAGUGGCUGCGGGCGUCUUGGUUGAAUCUUUUGCUACAAACCAUGUUUGCGUUUGAGCUCUCCAGGAU | 0.946 |

Study 4
Target: Interferon regulatory factor 5, full length, phosphomimetic (IRF5, Homo sapiens, UniProt Q13568-2, residues 1-514, K96S/S451D/S453D/S456D/S462D)
Method: protein-binding microarray
Form: double-stranded DNA, one strand shown
Sample: in vitro
Tested at: 250 nM
Notes: 60-bp whole probe
With: salmon DNA 0.4 mg/ml
Reference: random background probes
Direction: higher = stronger binding
Shared flanks, not repeated: GCCTAGCAC … GTCTTGATTCGCTTGACGCTGCTG
| Strand | log fluorescence [z-score] |
| --- | --- |
| TTAGGTCTAGGACTGGGTTAGTGCTAG | -0.176 |
| TTAGGTTTCGACTTTCGGTTTGTGCTA | 10.5 |
| GGACACGGATGCGGTCTGCCGTGCTAG | -0.534 |
| GTCGGTTTCCTACTGCTGACGTGCTAG | 0.745 |
| TTAGATCTCAGTTGCGATTAGTGCTAG | 1.07 |
| GACGGTATCCTTTTCCTGACGTGCTAG | 0.405 |
| GACGATCGCAGTTTCGAGACGTGCTAG | 4.18 |
| GTAGGTCTCGGTTTCGGTTAGTGCTAG | 8.46 |
| CTGCATTTTTTTTTTCTACTGTGCTAG | 0.938 |
| TCAAGTTTACCCATCTCACTGTGCTAG | 0.265 |
| GAGACTCTAATATTGAGACTGTGCTAG | -0.156 |
| AACGGTTTCGGACTGGGGACGTGCTAG | 4.67 |
| GACGATTTCGGGTTACGAGACGTGCTA | 4.56 |
| TCAAACATCATTTTTCCACTGTGCTAG | 0.996 |
| CACGGTATCCTTCTCCTGACGTGCTAG | -0.125 |
| GACGGTTCCCGTTTCGGGACGTGCTAG | 2.54 |
| TAATTTTCATTTTCCAAATGGTGCTAG | 3.24 |
| GTCGGTTTCGGGTTTCGGGACGTGCTA | 8.76 |
| GACGGTCTCGTTATCGGGACGTGCTAG | 0.751 |
| TTAGATTCCAGTTTCGTTTAGTGCTAG | 8.36 |
| GACGATTTCAGTTCCGAGCCGTGCTAG | 1.18 |
| GACGAACTGGTGACTGGAGACGTGCTA | -0.465 |
| TTAGATATCGGGTTTCGATTCGTGCTA | 7.1 |
| GACGGTATCGACTTTCGTGACGTGCTA | 3.89 |

Repeated from above (study 4):
| Strand | log fluorescence [z-score] |
| --- | --- |
| TTAGATATCGGGTTTCGATTCGTGCTA | 7.1 |
| GAGACTCTAATATTGAGACTGTGCTAG | -0.156 |
| TTAGGTTTCGACTTTCGGTTTGTGCTA | 10.5 |
| GACGAACTGGTGACTGGAGACGTGCTA | -0.465 |
| CTGCATTTTTTTTTTCTACTGTGCTAG | 0.938 |
| GACGGTATCGACTTTCGTGACGTGCTA | 3.89 |
| TTAGATTCCAGTTTCGTTTAGTGCTAG | 8.36 |
| GACGATTTCAGTTCCGAGCCGTGCTAG | 1.18 |
| GACGGTATCCTTTTCCTGACGTGCTAG | 0.405 |
| GTCGGTTTCGGGTTTCGGGACGTGCTA | 8.76 |
| GGACACGGATGCGGTCTGCCGTGCTAG | -0.534 |
